Assay results of several laboratories.
Every numbered part comes from another study and shows a few of its results, in no order. Values joined by “and” are separate records of one study, mostly repeats; a detail may differ.
Chain of UniProt P35626 (whole entry, looked up): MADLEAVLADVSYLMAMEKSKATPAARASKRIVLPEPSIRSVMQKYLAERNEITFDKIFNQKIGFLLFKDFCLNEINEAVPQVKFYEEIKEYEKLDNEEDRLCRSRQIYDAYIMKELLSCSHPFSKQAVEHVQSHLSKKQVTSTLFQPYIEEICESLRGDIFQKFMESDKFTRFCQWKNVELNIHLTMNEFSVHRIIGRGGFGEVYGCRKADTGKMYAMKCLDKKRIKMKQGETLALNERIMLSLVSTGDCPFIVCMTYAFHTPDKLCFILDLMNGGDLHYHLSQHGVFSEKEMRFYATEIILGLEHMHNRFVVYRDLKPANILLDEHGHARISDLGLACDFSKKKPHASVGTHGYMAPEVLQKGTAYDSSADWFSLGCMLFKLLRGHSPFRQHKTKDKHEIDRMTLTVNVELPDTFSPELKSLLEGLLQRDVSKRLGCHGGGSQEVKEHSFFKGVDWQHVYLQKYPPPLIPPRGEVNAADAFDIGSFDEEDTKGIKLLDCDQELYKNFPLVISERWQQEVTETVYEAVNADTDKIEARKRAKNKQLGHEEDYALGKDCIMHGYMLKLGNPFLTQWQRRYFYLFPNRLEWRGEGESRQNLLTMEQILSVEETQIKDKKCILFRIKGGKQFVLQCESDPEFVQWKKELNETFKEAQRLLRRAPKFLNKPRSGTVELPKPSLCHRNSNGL
Chain of UniProt Q13639 (whole entry, looked up): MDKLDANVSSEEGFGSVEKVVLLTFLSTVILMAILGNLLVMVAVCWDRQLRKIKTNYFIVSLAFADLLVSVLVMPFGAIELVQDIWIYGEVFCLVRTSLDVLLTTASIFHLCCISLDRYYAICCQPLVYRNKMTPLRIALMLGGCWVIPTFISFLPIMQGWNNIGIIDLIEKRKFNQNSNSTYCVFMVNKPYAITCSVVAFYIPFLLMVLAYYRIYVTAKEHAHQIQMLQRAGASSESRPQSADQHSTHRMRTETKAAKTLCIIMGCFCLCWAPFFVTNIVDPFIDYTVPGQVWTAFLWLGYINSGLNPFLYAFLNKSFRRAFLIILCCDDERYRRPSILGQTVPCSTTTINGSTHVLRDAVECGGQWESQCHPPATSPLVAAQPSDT
Chain of UniProt O95747 (whole entry, looked up): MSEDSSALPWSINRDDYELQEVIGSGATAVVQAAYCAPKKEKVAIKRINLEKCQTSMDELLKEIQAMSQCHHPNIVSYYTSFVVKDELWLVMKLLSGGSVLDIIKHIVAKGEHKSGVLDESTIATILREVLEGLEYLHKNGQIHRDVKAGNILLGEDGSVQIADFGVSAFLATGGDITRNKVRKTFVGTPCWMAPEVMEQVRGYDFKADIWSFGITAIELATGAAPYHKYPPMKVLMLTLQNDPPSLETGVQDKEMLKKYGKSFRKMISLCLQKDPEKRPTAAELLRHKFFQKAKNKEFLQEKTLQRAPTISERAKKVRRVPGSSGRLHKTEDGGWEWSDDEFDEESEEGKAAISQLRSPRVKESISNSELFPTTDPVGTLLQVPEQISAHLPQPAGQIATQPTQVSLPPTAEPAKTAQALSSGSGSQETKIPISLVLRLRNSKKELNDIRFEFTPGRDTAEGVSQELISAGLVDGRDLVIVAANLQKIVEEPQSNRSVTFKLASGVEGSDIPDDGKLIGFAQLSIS
Chain of UniProt O00506 (whole entry, looked up): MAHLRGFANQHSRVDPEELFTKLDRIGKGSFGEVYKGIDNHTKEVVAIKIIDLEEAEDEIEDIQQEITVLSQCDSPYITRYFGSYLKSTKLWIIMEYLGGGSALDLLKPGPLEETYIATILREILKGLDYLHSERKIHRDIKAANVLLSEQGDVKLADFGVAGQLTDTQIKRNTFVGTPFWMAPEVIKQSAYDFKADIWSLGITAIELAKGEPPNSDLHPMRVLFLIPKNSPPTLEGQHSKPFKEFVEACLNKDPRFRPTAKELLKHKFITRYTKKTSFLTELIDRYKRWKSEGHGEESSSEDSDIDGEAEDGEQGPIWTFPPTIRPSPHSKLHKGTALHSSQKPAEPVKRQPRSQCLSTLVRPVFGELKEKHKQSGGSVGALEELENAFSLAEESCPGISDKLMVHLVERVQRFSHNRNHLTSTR
Chain of UniProt Q96LB0 (whole entry, looked up): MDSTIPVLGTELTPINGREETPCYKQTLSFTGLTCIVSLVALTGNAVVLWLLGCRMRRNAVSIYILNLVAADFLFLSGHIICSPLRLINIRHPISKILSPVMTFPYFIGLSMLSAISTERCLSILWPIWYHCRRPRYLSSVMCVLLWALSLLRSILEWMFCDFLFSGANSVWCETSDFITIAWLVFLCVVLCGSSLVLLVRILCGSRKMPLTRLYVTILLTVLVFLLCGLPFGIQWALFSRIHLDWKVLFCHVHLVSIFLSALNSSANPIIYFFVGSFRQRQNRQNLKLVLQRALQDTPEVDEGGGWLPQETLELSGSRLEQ
Chain of UniProt P41146 (whole entry, looked up): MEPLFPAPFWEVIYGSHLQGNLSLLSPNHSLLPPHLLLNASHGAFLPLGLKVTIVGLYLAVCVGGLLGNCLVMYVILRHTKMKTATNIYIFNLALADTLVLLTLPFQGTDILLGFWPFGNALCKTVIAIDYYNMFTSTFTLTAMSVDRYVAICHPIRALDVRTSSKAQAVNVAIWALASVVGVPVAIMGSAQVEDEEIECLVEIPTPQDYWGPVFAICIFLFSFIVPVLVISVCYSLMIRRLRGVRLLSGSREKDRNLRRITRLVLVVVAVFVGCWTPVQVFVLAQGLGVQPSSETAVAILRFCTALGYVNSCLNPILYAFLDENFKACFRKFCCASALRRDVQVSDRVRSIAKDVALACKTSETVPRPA
Chain of UniProt Q9BYT3 (whole entry, looked up): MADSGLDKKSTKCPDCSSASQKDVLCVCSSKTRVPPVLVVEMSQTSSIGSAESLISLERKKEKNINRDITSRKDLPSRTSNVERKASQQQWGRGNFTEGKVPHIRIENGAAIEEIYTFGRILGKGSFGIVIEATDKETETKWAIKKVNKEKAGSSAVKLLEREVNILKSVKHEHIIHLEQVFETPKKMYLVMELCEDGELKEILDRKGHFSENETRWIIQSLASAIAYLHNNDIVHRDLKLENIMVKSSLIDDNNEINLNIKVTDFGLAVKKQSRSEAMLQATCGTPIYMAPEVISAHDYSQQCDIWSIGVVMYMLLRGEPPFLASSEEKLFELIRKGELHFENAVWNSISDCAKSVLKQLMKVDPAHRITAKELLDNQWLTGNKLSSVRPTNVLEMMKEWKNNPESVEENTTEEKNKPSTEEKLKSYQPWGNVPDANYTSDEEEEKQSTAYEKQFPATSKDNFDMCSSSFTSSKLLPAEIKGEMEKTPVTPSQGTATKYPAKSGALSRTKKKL
Chain of UniProt P37173 (whole entry, looked up): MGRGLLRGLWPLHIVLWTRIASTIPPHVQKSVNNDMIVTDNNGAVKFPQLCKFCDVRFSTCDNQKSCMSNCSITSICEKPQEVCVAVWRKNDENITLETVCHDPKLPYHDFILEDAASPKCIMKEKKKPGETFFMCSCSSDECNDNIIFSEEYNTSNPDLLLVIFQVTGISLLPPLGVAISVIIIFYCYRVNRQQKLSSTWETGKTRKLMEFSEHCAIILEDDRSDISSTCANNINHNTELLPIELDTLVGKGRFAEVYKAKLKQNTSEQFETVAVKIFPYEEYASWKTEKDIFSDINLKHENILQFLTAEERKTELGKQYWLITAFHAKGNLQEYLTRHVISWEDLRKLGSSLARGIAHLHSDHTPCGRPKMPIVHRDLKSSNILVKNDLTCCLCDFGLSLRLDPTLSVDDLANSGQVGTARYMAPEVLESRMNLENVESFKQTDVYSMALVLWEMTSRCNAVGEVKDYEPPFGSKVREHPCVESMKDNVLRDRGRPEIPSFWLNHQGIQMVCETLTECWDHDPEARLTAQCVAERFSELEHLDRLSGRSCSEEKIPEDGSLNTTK
Chain of UniProt P32298 (whole entry, looked up): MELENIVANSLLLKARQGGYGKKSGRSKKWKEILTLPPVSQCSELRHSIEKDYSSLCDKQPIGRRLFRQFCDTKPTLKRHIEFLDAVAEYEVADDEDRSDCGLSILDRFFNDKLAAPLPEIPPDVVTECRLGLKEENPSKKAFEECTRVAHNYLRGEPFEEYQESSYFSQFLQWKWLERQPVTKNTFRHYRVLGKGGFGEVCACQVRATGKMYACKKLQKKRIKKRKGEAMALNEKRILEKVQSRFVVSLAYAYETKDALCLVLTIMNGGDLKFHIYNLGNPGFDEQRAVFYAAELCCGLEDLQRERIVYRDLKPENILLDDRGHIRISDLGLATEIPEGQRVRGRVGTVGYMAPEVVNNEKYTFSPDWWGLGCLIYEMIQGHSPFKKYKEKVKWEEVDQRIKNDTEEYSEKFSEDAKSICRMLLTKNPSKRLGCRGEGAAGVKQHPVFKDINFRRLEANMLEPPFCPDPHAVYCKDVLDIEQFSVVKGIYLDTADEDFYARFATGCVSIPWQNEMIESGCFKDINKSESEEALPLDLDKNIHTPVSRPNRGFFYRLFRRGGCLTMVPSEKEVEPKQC
Chain of UniProt O96013 (whole entry, looked up): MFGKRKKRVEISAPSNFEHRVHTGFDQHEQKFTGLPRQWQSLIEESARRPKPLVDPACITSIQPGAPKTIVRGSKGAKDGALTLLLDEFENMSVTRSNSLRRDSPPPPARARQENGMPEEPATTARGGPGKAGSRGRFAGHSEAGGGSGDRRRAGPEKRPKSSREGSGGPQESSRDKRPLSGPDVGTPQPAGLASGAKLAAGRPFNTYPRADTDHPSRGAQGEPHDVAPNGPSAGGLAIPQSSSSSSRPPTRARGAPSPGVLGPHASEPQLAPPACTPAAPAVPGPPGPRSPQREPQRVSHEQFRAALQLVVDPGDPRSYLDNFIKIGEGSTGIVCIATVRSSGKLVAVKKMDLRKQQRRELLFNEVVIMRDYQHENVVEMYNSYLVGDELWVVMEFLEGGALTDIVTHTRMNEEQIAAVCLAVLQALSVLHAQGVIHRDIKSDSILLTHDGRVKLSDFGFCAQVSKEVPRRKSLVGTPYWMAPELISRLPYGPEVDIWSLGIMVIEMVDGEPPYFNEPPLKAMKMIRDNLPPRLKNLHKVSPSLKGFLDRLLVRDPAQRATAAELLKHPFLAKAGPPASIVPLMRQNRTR

Set 1
Compound: N#Cc1ccc(Nc2ccc3[nH]c(=O)[nH]c3c2)c(Cl)c1
Read-out: cell-free assay
Method: competition with immobilised ligand
Concentration: 1 µM
target	remaining binding [%]
G protein-coupled receptor kinase 3 (GRK3, Homo sapiens, UniProt P35626)	100
Phosphorylase b kinase gamma catalytic chain, liver/testis isoform (PHKG2, Homo sapiens, UniProt P15735)	100
Ribosomal protein S6 kinase alpha-5, N-terminal kinase domain (RPS6KA5, Homo sapiens, UniProt O75582)	100
Serine/threonine-protein kinase RIO2 (RIOK2, Homo sapiens, UniProt Q9BVS4)	89
Serine/threonine-protein kinase 25 (STK25, Homo sapiens, UniProt O00506)	100
Tyrosine-protein kinase receptor UFO (AXL, Homo sapiens, UniProt P30530)	100
Non-receptor tyrosine-protein kinase TYK2, JH2 (TYK2, Homo sapiens, UniProt P29597)	100
Serine/threonine-protein kinase PAK 4 (PAK4, Homo sapiens, UniProt O96013)	92
Tyrosine-protein kinase ABL1, non-phosphorylated (ABL1, Homo sapiens, UniProt P00519, Q252H)	89
Serine/threonine-protein kinase Nek9 (NEK9, Homo sapiens, UniProt Q8TD19)	96
Serine/threonine-protein kinase PAK 3 (PAK3, Homo sapiens, UniProt O75914)	100
Peripheral plasma membrane protein CASK (CASK, Homo sapiens, UniProt O14936)	100
Ribosomal protein S6 kinase alpha-1, N-terminal kinase domain (RPS6KA1, Homo sapiens, UniProt Q15418)	93
Tyrosine-protein kinase JAK2, JH1 (JAK2, Homo sapiens, UniProt O60674)	100
Cyclin-dependent kinase 16 (CDK16, Homo sapiens, UniProt Q00536)	100
Tyrosine-protein kinase ITK/TSK (ITK, Homo sapiens, UniProt Q08881)	100
Proto-oncogene tyrosine-protein kinase receptor Ret (RET, Homo sapiens, UniProt P07949, V804L)	100
G protein-coupled receptor kinase 4 (GRK4, Homo sapiens, UniProt P32298)	100
Tyrosine-protein kinase Fyn (FYN, Homo sapiens, UniProt P06241)	89
Mitogen-activated protein kinase kinase kinase 10 (MAP3K10, Homo sapiens, UniProt Q02779)	99
Mitogen-activated protein kinase 15 (MAPK15, Homo sapiens, UniProt Q8TD08)	100
Serine/threonine-protein kinase pim-3 (PIM3, Homo sapiens, UniProt Q86V86)	100
Rhodopsin kinase GRK7 (GRK7, Homo sapiens, UniProt Q8WTQ7)	100
Serine/threonine-protein kinase 33 (STK33, Homo sapiens, UniProt Q9BYT3)	93
Tyrosine-protein kinase receptor Tie-1 (TIE1, Homo sapiens, UniProt P35590)	91

Set 2
Compound: c1ccc2c(-c3nn4c(-c5ccncc5)nnc4s3)c[nH]c2c1
tested on	test	test system	conditions	scale	enzyme activity
L444P/L444P Gaucher fibroblasts	4-MUG hydrolysis in lysate	–	0.1 µM, 72 h	relative to: vehicle	144% and 128% and 140% and 135% and 149% and 118% and 133% and 121%
glucocerebrosidase L444P (human)	4-MUG hydrolysis in lysate	Gaucher fibroblasts L444P/L444P	0.1 µM, 24 h	relative to: vehicle	106% and 110%
L444P/L444P Gaucher fibroblasts	4-MUG hydrolysis in lysate	–	0.05 µM, 72 h	relative to: vehicle	102% and 116% and 117% and 123%
alpha-galactosidase (human)	–	healthy dermal fibroblasts	0.5 µM, with ISRIB	relative to: DMSO without ISRIB	254% and 170% and 255% and 169% and 172% and 164% and 205% and 239%
wild-type human fibroblasts	GCase activity, 4-MUG hydrolysis lysate	–	0.5 µM, 72 h	relative to: vehicle	139% and 191%
L444P/L444P Gaucher fibroblasts	4-MUG hydrolysis in lysate	–	0.5 µM, 72 h, without ISRIB	relative to: vehicle	175% and 159% and 162% and 157% and 164% and 171% and 180%
wild-type human fibroblasts	GCase activity, 4-MUG hydrolysis lysate	–	1 µM, 72 h	relative to: vehicle	126% and 141% and 191%
L444P/L444P Gaucher fibroblasts	4-MUG hydrolysis in lysate	–	0.5 µM, 72 h	relative to: vehicle	185% and 186% and 163% and 237% and 157% and 178% and 269% and 148%
wild-type human fibroblasts	GCase activity, 4-MUG hydrolysis lysate	–	0.5 µM, 48 h	relative to: vehicle	109% and 112% and 105% and 108% and 100%

Set 3
SMILES: CCN(c1nc(N)c(C(=O)N=C(N)N)nc1Cl)C(C)C
Action: agonist
Concentration: 10 µM
Relative to: untreated
target	read-out	method	fold over basal
Probable G-protein coupled receptor 45 (GPR45, Homo sapiens, UniProt Q9Y5Y3)	β-arrestin recruitment	PRESTO-Tango	0.99
Mas-related G-protein coupled receptor member F (MRGPRF, Homo sapiens, UniProt Q96AM1)	β-arrestin recruitment	PRESTO-Tango	1.11
Metabotropic glutamate receptor 5 (GRM5, Homo sapiens, UniProt P41594)	β-arrestin recruitment	PRESTO-Tango	1.21 fold
Melanin-concentrating hormone receptor 2 (MCHR2, Homo sapiens, UniProt Q969V1)	β-arrestin recruitment	PRESTO-Tango	1.04
Retinoic acid-induced protein 3 (GPRC5A, Homo sapiens, UniProt Q8NFJ5)	β-arrestin recruitment	PRESTO-Tango	0.88
Corticotropin-releasing factor receptor 2 (CRHR2, Homo sapiens, UniProt Q13324)	β-arrestin recruitment	PRESTO-Tango	0.91
5-hydroxytryptamine receptor 4 (HTR4, Homo sapiens, UniProt Q13639)	β-arrestin recruitment	PRESTO-Tango	1.26
Nociceptin receptor (OPRL1, Homo sapiens, UniProt P41146)	–	PRESTO-Tango arrestin recruitment	1.46
Mas-related G-protein coupled receptor member X3 (Homo sapiens, UniProt Q96LB0)	β-arrestin recruitment	PRESTO-Tango	0.95

Set 4
SMILES: COc1ccc(S(=O)(=O)N(CCO)c2ccccc2CN(C)CC=Cc2ccc(Cl)cc2)cc1
Read-out: enzyme activity
Action: inhibitor
Concentration: 0.5 µM
Relative to: control
target	remaining activity [%]
Death-associated protein kinase 1 (DAPK1, Homo sapiens, UniProt P53355)	120
Serine/threonine-protein kinase OSR1 (OXSR1, Homo sapiens, UniProt O95747)	106
G protein-coupled receptor kinase 3 (GRK3, Homo sapiens, UniProt P35626)	105
STE20/SPS1-related proline-alanine-rich protein kinase (STK39, Homo sapiens, UniProt Q9UEW8)	92.8
cAMP-dependent protein kinase catalytic subunit alpha (PRKACA, Homo sapiens, UniProt P17612)	104
TGF-beta receptor type-2 (TGFBR2, Homo sapiens, UniProt P37173)	97.2
Protein kinase C alpha type (PRKCA, Homo sapiens, UniProt P17252)	98.2
Mitogen-activated protein kinase 9 (MAPK9, Homo sapiens, UniProt P45984)	85.5

Some of these lines once more (set 3):
target	read-out	method	fold over basal
Retinoic acid-induced protein 3 (GPRC5A, Homo sapiens, UniProt Q8NFJ5)	β-arrestin recruitment	PRESTO-Tango	0.88
Mas-related G-protein coupled receptor member X3 (Homo sapiens, UniProt Q96LB0)	β-arrestin recruitment	PRESTO-Tango	0.95
5-hydroxytryptamine receptor 4 (HTR4, Homo sapiens, UniProt Q13639)	β-arrestin recruitment	PRESTO-Tango	1.26
Mas-related G-protein coupled receptor member F (MRGPRF, Homo sapiens, UniProt Q96AM1)	β-arrestin recruitment	PRESTO-Tango	1.11
Metabotropic glutamate receptor 5 (GRM5, Homo sapiens, UniProt P41594)	β-arrestin recruitment	PRESTO-Tango	1.21 fold
Corticotropin-releasing factor receptor 2 (CRHR2, Homo sapiens, UniProt Q13324)	β-arrestin recruitment	PRESTO-Tango	0.91
